Results pooled from the literature.
A part holds a random share of what one study measured.

Series 1
Target: Prothrombin, mature alpha-thrombin (F2, Homo sapiens, UniProt P00734)
Technique: aptamer microarray, sandwich
Form: DNA with 2'F-ANA
Sample: in vitro
Concentration: 200 nM
Setting: whole 15-mer aptamer, many near background
Added: Cy3 exosite-II aptamer, 400 nM
Reading: higher = stronger binding
Strand | mean fluorescence intensity [a.u.]
GGTTGGTGTGGTTGG (2'F-ANA at 2 7 9 10 14) | 96.6
GGTTGGTGTGGTTGG (2'F-ANA at 1 4 6 7 12 13 14) | 157
GGTTGGTGTGGTTGG (2'F-ANA at 2 3 7 8 14) | 457

Series 2
Target: Histone acetyltransferase KAT6A, both winged helices, GST fusion (KAT6A, Homo sapiens, UniProt Q92794, residues 1-181)
Technique: protein binding microarray
Form: double-stranded DNA, one strand shown
Sample: in vitro
Concentration: not given
Setting: 8-mer, flanks averaged, mean of 2 arrays, mostly near background
Relative to: not given
Reading: higher = stronger binding
Target sequence (chain): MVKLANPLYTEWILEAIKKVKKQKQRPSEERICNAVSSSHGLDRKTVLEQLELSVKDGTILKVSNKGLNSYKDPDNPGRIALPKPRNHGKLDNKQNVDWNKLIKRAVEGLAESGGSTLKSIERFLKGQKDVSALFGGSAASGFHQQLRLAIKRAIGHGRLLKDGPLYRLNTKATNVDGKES
Strand | E-score
ACCGATAA | 0.136
TGCGAGAA | 0.0185
CCCGTATA | 0.226
TCCCTACA | -0.117
CAGCATGG | -0.155

Series 3
Target: Phosphate system positive regulatory protein PHO4, full length, GST-tagged (PHO4, Saccharomyces cerevisiae, UniProt P07270, residues 1-312)
Technique: competition protein-binding microarray
Form: double-stranded DNA, one strand shown
Sample: in vitro
Concentration: 2 µM
Setting: whole 60-bp probe, lowest competitor level
Added: Cbf1 competitor, 0.05 µM
Reading: higher = stronger binding
Target sequence (chain): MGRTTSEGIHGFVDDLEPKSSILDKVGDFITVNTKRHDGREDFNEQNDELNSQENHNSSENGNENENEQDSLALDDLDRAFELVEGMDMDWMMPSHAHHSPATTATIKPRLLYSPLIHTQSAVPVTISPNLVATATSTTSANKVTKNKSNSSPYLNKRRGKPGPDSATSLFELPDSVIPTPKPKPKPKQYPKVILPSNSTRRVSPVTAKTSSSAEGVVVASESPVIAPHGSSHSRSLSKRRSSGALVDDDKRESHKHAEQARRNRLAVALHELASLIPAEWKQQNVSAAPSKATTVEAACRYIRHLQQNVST
Strand | fluorescence intensity
TTGTAAGGCTGTACCCACGTCTTGAAAGGCAATCTGGTCTTGATTCGCTTGACGCTGCTG | 5890 a.u.
GTCTTGTCTCATTGCCTCGTGGGTGTCCCCACTTCAGTCTTGATTCGCTTGACGCTGCTG | 11900 a.u.
CTTCTGTAAATTTGTCACTTTACTTGACGCGCCCCGGTCTTGATTCGCTTGACGCTGCTG | 3630 a.u.
CTAACGAAGGTTTGTCACCGCACTTACAAGCCAAGTGTCTTGATTCGCTTGACGCTGCTG | 3730 a.u.

Other studies, line by line
Substance | target | test | system | setting | scale | endpoint | result
PhoQ, residues 284 288 289 292 302 303 ASSHFY | PhoP, residues 12 14 15 18 19 LWHVM (Escherichia coli, UniProt P23836) | Sort-seq, measured: YFP reporter | E. coli | PhoQ-PhoP variant library, added: 10 µM Mg2+ | relative to: high Mg2+ state, higher = stronger signaling | fold induction | 18.2

Some of these lines once more (series 2):
Strand | E-score
ACCGATAA | 0.136
